Assay results pooled from the literature.
Lines come from different studies, so protocols differ. Several values in a cell are separate wells, animals, samples, runs or records.
Cell line: TK-10

| Compound | assay | setting | how to read | endpoint | result |
| --- | --- | --- | --- | --- | --- |
| C#C[C@@]1(O)[C@@H](CO)O[C@@H](n2cc(Br)c3c(N)ncnc32)[C@@H]1O | SRB | NCI-60 screen | – | TGI | 85.8 µM and > 100 µM |
| Cc1cc(C)n(C(=S)[S][Au][PH](CCCCCC[PH]([Au][S]C(=S)n2nc(C)cc2C)(c2ccccc2)c2ccccc2)(c2ccccc2)c2ccccc2)n1 | cell growth, NCI-60 screen | renal cancer | – | log10 TGI | > -4 |
| C#C[C@@]1(O)[C@@H](CO)O[C@@H](n2cc(F)c3c(N)ncnc32)[C@@H]1O | SRB | NCI-60 screen | – | TGI | 6.56 µM |
| CCCN1CCN(c2ccc3[nH]c(-c4ccc5[nH]c(-c6cc(OC)c(OC)c(OC)c6)nc5c4)nc3c2)CC1 | SRB | 10 µM, 48 h | – | growth percent | 125% |
| O=C(Nc1nnc2[nH]c(=S)[nH]c(-c3ccc(Cl)cc3)c1-2)c1ccccc1 | SRB | 10 µM, NCI60 single-dose screen | relative to: untreated | cell growth | 112% |
| C#C[C@@]1(O)[C@@H](CO)O[C@@H](n2cc(Cl)c3c(N)ncnc32)[C@@H]1O | SRB | NCI-60 screen | – | TGI | 0.891 µM and 1.72 µM |
| Cc1cc(-c2ccccc2)n(-c2nc(-c3ccc(Cl)cc3)c3c(NC(=O)c4ccccc4)nnc-3[nH]2)n1 | SRB | 10 µM, NCI60 single-dose screen | relative to: untreated | cell growth | 102% |
| COc1ccc(OC)c(-c2nc3ccc(-c4nc5ccc(N6CCN(C)CC6)cc5[nH]4)cc3[nH]2)c1 | SRB | 10 µM, 48 h | – | growth percent | 112% |
| Cc1cc(=O)[nH]n1-c1nc(-c2ccc(Cl)cc2)c2c(NC(=O)c3ccccc3)nnc-2[nH]1 | SRB | 10 µM, NCI60 single-dose screen | relative to: untreated | cell growth | 109% |
| CCCN1CCN(c2ccc3[nH]c(-c4ccc5[nH]c(-c6ccc(OCC)c(OCC)c6)nc5c4)nc3c2)CC1 | SRB | 10 µM, 48 h | – | growth percent | -0.9% |
| O=C1NC(=NCc2cccs2)S/C1=C\c1ccc2ncccc2c1 | MTS | NCI60 panel | – | IC50 | > 10 µM |
| CCCCN1CCN(c2ccc3[nH]c(-c4ccc5[nH]c(-c6ccc(OCC)c(OCC)c6)nc5c4)nc3c2)CC1 | SRB | 10 µM, 48 h | – | growth percent | 57% |
| Cn1cncc1C1=CN(c2ncnc3[nH]cnc23)CCS1 | – | renal cancer | – | TGI | 95.5 µM |
| CCOc1ccc(-c2nc3cc(-c4nc5cc(N6CCN(C)CC6)ccc5[nH]4)ccc3[nH]2)cc1OCC | SRB | 10 µM, 48 h | – | growth percent | 91% |
| Cc1cc(C)n(-c2nc(-c3ccc(Cl)cc3)c3c(NC(=O)c4ccccc4)nnc-3[nH]2)n1 | SRB | 10 µM, NCI60 single-dose screen | relative to: untreated | cell growth | 115% |
